Measurements from different studies.
Numbered parts are unrelated; each lists some results of a single study.
Chain of UniProt Q9UQM7 (whole entry, looked up): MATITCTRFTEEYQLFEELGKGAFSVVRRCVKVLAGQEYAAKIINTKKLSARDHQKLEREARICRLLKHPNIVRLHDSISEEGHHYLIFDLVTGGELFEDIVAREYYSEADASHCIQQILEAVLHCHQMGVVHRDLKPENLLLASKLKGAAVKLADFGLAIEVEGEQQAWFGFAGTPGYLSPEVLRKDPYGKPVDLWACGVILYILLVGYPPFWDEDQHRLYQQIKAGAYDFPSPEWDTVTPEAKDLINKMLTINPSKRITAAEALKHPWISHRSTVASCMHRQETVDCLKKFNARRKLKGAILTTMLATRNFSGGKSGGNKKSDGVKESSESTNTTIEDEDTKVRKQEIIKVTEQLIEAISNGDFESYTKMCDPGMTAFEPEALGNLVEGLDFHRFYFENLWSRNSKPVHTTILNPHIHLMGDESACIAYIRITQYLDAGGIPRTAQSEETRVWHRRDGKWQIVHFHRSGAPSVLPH
Chain of UniProt P21673 (whole entry, looked up): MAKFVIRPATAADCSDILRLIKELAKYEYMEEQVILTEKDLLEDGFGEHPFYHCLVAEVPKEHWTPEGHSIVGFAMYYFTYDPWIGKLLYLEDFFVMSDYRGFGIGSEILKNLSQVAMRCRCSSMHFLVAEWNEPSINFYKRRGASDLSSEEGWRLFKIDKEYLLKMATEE
Chain of UniProt P28335 (whole entry, looked up): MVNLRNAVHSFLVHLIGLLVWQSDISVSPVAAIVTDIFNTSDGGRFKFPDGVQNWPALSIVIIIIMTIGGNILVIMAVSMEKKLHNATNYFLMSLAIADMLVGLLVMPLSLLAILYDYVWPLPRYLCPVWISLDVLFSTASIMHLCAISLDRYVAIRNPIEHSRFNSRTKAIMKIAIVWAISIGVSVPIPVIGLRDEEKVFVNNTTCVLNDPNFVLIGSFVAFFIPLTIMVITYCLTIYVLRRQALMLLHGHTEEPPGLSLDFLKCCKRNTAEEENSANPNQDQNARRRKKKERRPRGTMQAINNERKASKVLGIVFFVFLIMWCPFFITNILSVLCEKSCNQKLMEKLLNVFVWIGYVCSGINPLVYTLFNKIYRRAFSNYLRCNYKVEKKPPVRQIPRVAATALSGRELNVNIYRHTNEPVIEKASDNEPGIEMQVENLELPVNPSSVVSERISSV
Chain of UniProt P62344 (whole entry, looked up): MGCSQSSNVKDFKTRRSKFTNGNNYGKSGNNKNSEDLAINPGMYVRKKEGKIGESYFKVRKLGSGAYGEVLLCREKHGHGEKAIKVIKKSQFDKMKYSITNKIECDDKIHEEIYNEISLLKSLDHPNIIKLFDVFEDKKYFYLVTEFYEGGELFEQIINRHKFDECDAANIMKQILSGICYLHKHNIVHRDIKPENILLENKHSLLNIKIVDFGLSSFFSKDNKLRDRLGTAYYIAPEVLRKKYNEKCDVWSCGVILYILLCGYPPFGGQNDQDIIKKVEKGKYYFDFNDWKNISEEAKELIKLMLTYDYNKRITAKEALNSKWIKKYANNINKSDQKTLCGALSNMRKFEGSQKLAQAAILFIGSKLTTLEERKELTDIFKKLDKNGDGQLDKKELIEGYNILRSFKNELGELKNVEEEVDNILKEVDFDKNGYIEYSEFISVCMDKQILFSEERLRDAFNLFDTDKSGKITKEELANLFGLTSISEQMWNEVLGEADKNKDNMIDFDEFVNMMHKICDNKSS
Chain of UniProt P9WI81 (whole entry, looked up): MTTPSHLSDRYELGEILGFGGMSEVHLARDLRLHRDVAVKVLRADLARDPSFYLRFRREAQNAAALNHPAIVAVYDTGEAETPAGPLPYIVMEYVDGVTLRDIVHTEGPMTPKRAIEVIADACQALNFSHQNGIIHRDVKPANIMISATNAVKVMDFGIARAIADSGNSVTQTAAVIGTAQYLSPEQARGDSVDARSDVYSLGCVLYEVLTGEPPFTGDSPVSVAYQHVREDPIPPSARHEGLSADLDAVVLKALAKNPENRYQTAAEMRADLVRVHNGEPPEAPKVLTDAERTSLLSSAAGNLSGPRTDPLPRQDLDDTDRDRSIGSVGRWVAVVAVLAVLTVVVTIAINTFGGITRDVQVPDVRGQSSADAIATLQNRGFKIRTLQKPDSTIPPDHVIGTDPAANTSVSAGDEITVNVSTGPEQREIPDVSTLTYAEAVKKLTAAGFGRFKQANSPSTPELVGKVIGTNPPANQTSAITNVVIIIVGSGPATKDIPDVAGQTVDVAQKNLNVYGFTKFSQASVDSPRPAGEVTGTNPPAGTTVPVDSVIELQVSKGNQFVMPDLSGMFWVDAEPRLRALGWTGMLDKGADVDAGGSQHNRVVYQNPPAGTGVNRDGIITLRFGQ

Set 1
Target: vesicular stomatitis virus glycoprotein
Read-out: viral entry
Method: VSVΔG-G pseudovirus
Concentration: 10 µM
SMILES | inhibition
COc1ccc(NC(=O)N2c3ccccc3CC2c2nc(C(C)C)no2)c(C)c1 (stereo not shown) | -12%
COc1ccc2c(c1)[nH]c1c(C)nccc12 | 6%
CCC(NC(=O)Nc1cccc(C)c1C)c1c(-n2cccc2)sc2c1CCN(C)C2 (stereo not shown) | 10%
FC(F)(F)c1cc(NC(=S)N/N=C/c2ccccn2)cc(C(F)(F)F)c1 | 16%
Cc1nn(C)c(C)c1-c1ccnc(NC2CCN(Cc3cccnc3)CC2)n1 | 1.7%
N#CC(=NNc1ccc(OC(F)(F)F)cc1)C(=O)c1ccc(Cl)cc1 | 32%
O=C(NCC(F)(F)F)c1ccc(CN(Cc2cc(Cl)cc3c2OCOC3)C2CC2)cc1 | -6%
Cc1sc2nc(CN3CCCC3)nc(Sc3nnnn3C3CCCC3)c2c1C | 21%

Further values, each from its own experiment
SMILES | tested on | test | setting | scale | quantity | result
CS(=O)(=O)NCC[C@H](NC(=O)c1cncc2c1cnn2-c1ccc(F)cc1)c1ccnc(S(C)(=O)=O)c1 | 5-hydroxytryptamine receptor 2C (HTR2C, Homo sapiens, UniProt P28335) | binding, radioligand binding | 10 µM | – | inhibition | -0.86%
C[C@H]1CC[C@H](n2c3cnccc3c3cnc(Nc4ccc5c(n4)CCN(C(=O)CO)C5)nc32)CC1 | Serine/threonine-protein kinase PknB (pknB, Mycobacterium tuberculosis, UniProt P9WI81) | cell-free assay | 1 µM | – | remaining signal | 51%
COc1ccc(CN2CCNCC2)c(OC)c1OC | A-375 | – | 100 µM, 18 h | – | viability | 90.8%
CC[C@@H]1CN2CC[C@@]3(C(=O)Nc4ccccc43)[C@@H]2C[C@@H]1/C(=C\OC)C(=O)OC | Calcium/calmodulin-dependent protein kinase type II subunit alpha (CAMK2A, Homo sapiens, UniProt Q9UQM7) | enzyme activity, inhibitor | 10 µM | – | inhibition | -12%
CS(=O)(=O)c1cc(C2(NC(=O)c3cncc4c3cnn4-c3ccc(F)cc3)CC2)ccn1 | Calcium-dependent protein kinase 1 (CDPK1, Plasmodium falciparum, UniProt P62344) | cell-free assay, competition with immobilised ligand | 1 µM | – | remaining binding | 99%
NC(=O)C[S@@+]([O-])C(c1ccccc1)c1ccccc1 | A-375 | – | 100 µM, 18 h | – | viability | 85%
Cc1ncsc1-c1ccc(CNC(=O)[C@@H]2C[C@@H](O)CN2C(=O)[C@@H](NC(=O)CCCCCNC(=O)Cc2ccccc2)C(C)(C)C)cc1 | – | exponential regression of PRP log k' | pH 7.0 | – | logD (1,9-decadiene/water) | -2.96
O=C(O)C1CCN1 (stereo not shown) | Diamine acetyltransferase 1 (Homo sapiens, UniProt P21673) | inhibitor | 10 µM | baseline: control | remaining activity | 114%

For quick reference, copied from above (further values, each from its own experiment):
SMILES | tested on | test | setting | scale | quantity | result
O=C(O)C1CCN1 (stereo not shown) | Diamine acetyltransferase 1 (Homo sapiens, UniProt P21673) | inhibitor | 10 µM | baseline: control | remaining activity | 114%
